Results pooled from the literature.
Numbers after ± are the reported error.
cyp121: Mycocyclosin synthase (cyp121, Mycobacterium tuberculosis, UniProt P9WPP7)
Sequence of UniProt P9WPP7 (whole entry, looked up): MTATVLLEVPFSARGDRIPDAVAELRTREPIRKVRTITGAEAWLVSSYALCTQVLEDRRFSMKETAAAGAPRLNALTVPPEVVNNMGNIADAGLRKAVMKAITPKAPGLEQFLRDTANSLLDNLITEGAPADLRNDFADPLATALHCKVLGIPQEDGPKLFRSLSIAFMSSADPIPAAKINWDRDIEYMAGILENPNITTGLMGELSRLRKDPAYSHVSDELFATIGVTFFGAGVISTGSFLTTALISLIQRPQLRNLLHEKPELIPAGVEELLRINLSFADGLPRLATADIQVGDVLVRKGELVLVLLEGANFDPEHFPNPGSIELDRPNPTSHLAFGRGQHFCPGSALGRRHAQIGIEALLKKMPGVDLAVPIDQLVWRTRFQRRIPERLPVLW
Secreted effector protein N-terminal domain: Secreted effector protein, N-terminal domain (Yersinia pestis, UniProt O68720)
Sequence of UniProt O82882 (whole entry, looked up): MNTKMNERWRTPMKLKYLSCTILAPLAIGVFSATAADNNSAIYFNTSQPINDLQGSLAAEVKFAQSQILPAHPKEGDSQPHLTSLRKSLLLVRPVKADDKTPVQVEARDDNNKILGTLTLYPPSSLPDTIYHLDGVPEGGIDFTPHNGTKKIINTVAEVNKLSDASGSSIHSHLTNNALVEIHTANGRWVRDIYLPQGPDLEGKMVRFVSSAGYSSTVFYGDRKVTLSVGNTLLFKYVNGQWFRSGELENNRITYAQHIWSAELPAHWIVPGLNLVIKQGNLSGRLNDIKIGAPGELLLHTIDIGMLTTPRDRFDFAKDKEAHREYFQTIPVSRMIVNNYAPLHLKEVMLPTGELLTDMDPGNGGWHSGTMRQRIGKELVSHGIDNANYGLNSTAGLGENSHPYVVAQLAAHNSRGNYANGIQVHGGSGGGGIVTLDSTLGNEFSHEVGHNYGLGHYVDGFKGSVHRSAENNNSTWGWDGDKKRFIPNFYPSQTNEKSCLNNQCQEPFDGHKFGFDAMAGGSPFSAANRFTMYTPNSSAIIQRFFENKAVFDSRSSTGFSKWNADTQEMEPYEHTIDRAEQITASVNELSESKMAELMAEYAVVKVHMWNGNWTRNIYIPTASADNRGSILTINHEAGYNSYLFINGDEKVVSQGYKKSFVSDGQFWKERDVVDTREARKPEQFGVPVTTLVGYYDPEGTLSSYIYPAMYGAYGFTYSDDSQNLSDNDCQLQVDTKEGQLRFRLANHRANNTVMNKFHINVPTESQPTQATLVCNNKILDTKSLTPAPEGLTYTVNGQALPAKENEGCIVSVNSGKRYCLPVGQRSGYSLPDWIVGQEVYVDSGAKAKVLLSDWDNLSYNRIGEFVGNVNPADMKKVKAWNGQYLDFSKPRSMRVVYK
Sequence of UniProt Q05323 (whole entry, looked up): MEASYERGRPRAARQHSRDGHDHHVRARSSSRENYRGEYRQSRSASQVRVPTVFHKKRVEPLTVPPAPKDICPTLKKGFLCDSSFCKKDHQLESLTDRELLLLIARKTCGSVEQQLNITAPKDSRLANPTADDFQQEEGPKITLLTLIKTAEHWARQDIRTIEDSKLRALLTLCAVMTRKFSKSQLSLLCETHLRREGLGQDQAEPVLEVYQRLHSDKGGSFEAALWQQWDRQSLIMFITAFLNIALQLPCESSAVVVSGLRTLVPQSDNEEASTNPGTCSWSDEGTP
Sequence of UniProt P9WPC9 (whole entry, looked up): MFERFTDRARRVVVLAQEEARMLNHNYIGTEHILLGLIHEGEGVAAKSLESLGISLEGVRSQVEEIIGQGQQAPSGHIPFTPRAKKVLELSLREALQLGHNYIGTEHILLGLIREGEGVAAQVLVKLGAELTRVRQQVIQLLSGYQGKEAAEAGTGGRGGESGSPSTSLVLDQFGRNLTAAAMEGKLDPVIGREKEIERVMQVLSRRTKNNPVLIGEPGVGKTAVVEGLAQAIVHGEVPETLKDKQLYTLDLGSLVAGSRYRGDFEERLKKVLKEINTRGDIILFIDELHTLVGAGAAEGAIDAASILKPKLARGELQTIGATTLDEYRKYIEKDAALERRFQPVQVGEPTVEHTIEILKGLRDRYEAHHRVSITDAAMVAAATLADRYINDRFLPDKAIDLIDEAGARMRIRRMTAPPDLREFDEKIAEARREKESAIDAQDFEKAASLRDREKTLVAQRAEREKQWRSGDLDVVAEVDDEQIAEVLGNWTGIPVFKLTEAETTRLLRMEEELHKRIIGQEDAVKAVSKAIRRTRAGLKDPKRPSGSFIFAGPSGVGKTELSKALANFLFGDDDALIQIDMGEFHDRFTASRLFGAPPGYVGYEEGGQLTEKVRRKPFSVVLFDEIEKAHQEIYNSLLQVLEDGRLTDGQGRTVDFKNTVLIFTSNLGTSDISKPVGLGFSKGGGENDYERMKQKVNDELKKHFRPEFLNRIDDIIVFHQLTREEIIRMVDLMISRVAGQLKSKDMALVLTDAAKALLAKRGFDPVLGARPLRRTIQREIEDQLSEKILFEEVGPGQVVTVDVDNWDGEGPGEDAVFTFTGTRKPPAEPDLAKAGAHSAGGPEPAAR
Sequence of UniProt P0C2E9 (whole entry, looked up): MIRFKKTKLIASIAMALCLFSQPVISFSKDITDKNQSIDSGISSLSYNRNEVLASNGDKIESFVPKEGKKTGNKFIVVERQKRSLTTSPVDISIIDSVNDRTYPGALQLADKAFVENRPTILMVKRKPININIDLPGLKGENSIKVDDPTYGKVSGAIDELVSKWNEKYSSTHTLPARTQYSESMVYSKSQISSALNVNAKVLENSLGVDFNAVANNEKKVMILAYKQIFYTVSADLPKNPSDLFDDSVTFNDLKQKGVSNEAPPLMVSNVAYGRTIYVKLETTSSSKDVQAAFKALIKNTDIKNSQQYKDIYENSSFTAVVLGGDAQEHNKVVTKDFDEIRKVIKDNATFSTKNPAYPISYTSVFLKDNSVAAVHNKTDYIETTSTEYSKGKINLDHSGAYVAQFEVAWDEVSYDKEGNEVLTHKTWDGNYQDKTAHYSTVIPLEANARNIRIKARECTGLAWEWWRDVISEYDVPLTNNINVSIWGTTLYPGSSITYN

| Compound | target | assay | system | conditions | Kd [µM] |
| --- | --- | --- | --- | --- | --- |
| Fc1ccc(-c2ccc(Cn3ccnc3)c(F)c2)cc1F | cyp121 | binding |  |  | 6.4 ± 0.9 |
| Cc1ccc(N2CC3CC(C2)N3C)cc1C(=O)NC1(c2ccc3c4c(cccc24)C(=O)N3C)CC1 | Replicase polyprotein 1a, papain-like protease (Severe acute respiratory syndrome coronavirus 2, UniProt P0DTC1) | binding, ITC |  |  | 0.0246 |
| COc1cc([N+](=O)[O-])cc(/C=N/NC(=O)[C@H]2COc3ccccc3O2)c1O | uncharacterized protein (Candidatus Liberibacter solanacearum, UniProt A0A094YYW1) |  |  |  | 14200 |
| CC(C)=CCCC(C)(OC1OC(COC2OC(CO)C(O)C2OC2OCC(O)C(O)C2O)C(O)C(O)C1O)C1CCC2(C)C1C(O)CC1C3(C)CCC(OC4OC(CO)C(O)C(O)C4OC4OC(CO)C(O)C(O)C4O)C(C)(C)C3CCC12C (stereo not shown) | Spike glycoprotein, S1 subunit (MERS-CoV, UniProt K9N5Q8) | binding |  |  | 0.67 |
| CCCCCCCC(O)CC(=O)CCc1ccc(O)c(OC)c1 (stereo not shown) | Transcriptional activator VP30 (VP30, Zaire ebolavirus, UniProt Q05323) |  | Ebola virus |  | 17.9 |
| CC(=O)N[C@H]1[C@@H](OC[C@H](NC(=O)[C@H](C)NC(=O)[C@H](C)N)C(=O)N[C@H](C(=O)N[C@H](C(=O)N[C@H](C(=O)N2CCC[C@H]2C(=O)N[C@@H](C)C(=O)N2CCC[C@H]2C(=O)N[C@@H](C)C(N)=O)[C@@H](C)O[C@H]2O[C@H](CO)[C@H](O)[C@H](O[C@@H]3O[C@H](CO)[C@H](O)[C@H](O)[C@H]3O)[C@H]2NC(C)=O)[C@@H](C)O[C@H]2O[C@H](CO)[C@H](O)[C@H](O[C@@H]3O[C@H](CO)[C@H](O)[C@H](O)[C@H]3O)[C@H]2NC(C)=O)[C@@H](C)O[C@H]2O[C@H](CO)[C@H](O)[C@H](O[C@@H]3O[C@H](CO)[C@H](O)[C@H](O)[C@H]3O)[C@H]2NC(C)=O)O[C@H](CO)[C@H](O)[C@@H]1O[C@@H]1O[C@H](CO)[C@H](O)[C@H](O)[C@H]1O | Metalloprotease StcE (stcE, Escherichia coli O157:H7, UniProt O82882) | binding | Escherichia coli, EHEC |  | 0.000268 ± 3e-06 |
| CC(=O)N[C@@H](Cc1ccccc1)C(=O)N[C@@H](Cc1ccc(OP(=O)(O)O)cc1)C(=O)N[C@H](C(=O)N[C@@H](Cc1c[nH]c2ccccc12)C(=O)N1CCC[C@H]1C(N)=O)C1CCCC1 | Secreted effector protein N-terminal domain | biochemical |  |  | 3.1 |
| CC(=O)NC1C(O)OC(CO)C(O)C1OC1OC(CO)C(O)C(O)C1O (stereo not shown) | pfo (Clostridium perfringens, UniProt P0C2E9) | binding |  |  | 46 |
| C=CC(c1ccc(-c2ccc(OC)c(F)c2)cc1)n1ccnc1 (stereo not shown) | cyp121 | binding |  |  | 7.1 ± 0.7 |
| CC[C@H](C)[C@H](NC(=O)[C@H](CC(N)=O)NC(=O)[C@H](CCCNC(=N)N)NC(=O)[C@H](CCCNC(=N)N)NC(=O)CNC(=O)[C@@H](NC(=O)[C@H](CC(C)C)NC(=O)[C@H](CCC(N)=O)NC(=O)[C@@H]1CC(=O)NCC(=O)N[C@@H](CC(C)C)C(=O)N[C@@H](CCCNC(=N)N)C(=O)N[C@@H](CCCNC(=N)N)C(=O)N[C@@H](CC(C)C)C(=O)N[C@@H](Cc2ccccc2)C(=O)N[C@@H](C)C(=O)N1)C(C)C)C(=O)OC | clpC1 (Mycobacterium tuberculosis, UniProt P9WPC9) | biochemical |  | pH 7.8 | 0.41 |
| CC(=O)N[C@@H](CC(=O)O)C(=O)N[C@@H](CCC(=O)O)C(=O)N[C@@H](Cc1ccc(OP(=O)(O)O)cc1)C(=O)N[C@H](C(=O)N[C@@H](CC(=O)O)C(=O)N1CCC[C@H]1C(=O)N[C@@H](Cc1ccccc1)C(N)=O)C1CCCC1 | Secreted effector protein N-terminal domain | biochemical |  |  | 0.18 |
| CSc1ccc(-c2ccc(Cn3ccnc3)cc2)s1 | cyp121 | binding |  |  | 6.6 ± 1 |
| CC[C@H](C)[C@H](NC(=O)[C@H](CC(C)C)NC(=O)[C@@H](N)Cc1ccc(O)cc1)C(=O)N[C@H]1CSc2ccc(cc2)SC[C@@H](C(=O)NCC(=O)N[C@@H](Cc2ccccc2)C(=O)N[C@@H](CC(C)C)C(=O)N[C@@H](CCCCN)C(=O)N[C@@H](CCCCN)C(=O)N[C@@H](CCCCN)C(=O)N[C@@H](CCCCNC(=O)CCCC[C@@H]2SC[C@@H]3NC(=O)N[C@@H]32)C(N)=O)NC(=O)[C@H](CC(=O)O)NC(=O)[C@H]([C@@H](C)O)NC(=O)[C@H](Cc2ccc(O)cc2)NC1=O | Gag polyprotein, capsid C-terminal domain (gag, UniProt P12493) | binding, biolayer interferometry | PBS | pH 7.4, 30 °C, biotinylated peptide immobilised, together with: C-CA 5 to 100 µM | > 100 |

A few entries again:
| Compound | target | assay | system | conditions | Kd [µM] |
| --- | --- | --- | --- | --- | --- |
| CC(=O)N[C@@H](Cc1ccccc1)C(=O)N[C@@H](Cc1ccc(OP(=O)(O)O)cc1)C(=O)N[C@H](C(=O)N[C@@H](Cc1c[nH]c2ccccc12)C(=O)N1CCC[C@H]1C(N)=O)C1CCCC1 | Secreted effector protein N-terminal domain | biochemical |  |  | 3.1 |
| CC(=O)NC1C(O)OC(CO)C(O)C1OC1OC(CO)C(O)C(O)C1O (stereo not shown) | pfo (Clostridium perfringens, UniProt P0C2E9) | binding |  |  | 46 |
